Values quoted from earlier work, collected from citations in different studies.
Several values in a cell are separate wells, animals, samples, runs or records. ± gives the spread as reported. ≈ marks a conversion by molar mass, not a printed value.

Structure (SMILES)	target or system	test	system	setting	how to read	endpoint	value
FC(F)(F)c1cc(-n2cc(CN3CCCN(c4noc5ccccc45)CC3)nn2)ccc1Br	Mycobacterium tuberculosis	–	–	concentration not given	–	MIC	24 µM (≈ 12.5 µg/mL)
CCCC/C=C/C(=O)N[C@@H](Cc1cc(F)cc(F)c1)C(=O)OC	Bacillus subtilis ClpP	peptidase activity, activator	–	–	–	EC50	~6 µM
CCCCCCCC(=O)NCC(=O)N[C@@H](C)C(=O)N[C@@H](CC(C)C)C(=O)N[C@](C)(CC)C(=O)N[C@@H](C)C(=O)N[C@H](C(=O)N[C@H](CO)CC(C)C)[C@@H](C)CC	LS180	cell growth, MTT	–	–	–	IC50	7 µM
CCCCc1ccc(Oc2ccccc2)c(O)c1	InhA	inhibitor	–	–	–	IC50	0.08 ± 0.015 µM
CNC1C(O)C(NC)C2OC3(O)C(OC(C)C[C@H]3NC(=O)Cc3cscn3)OC2C1O.Cl.Cl (stereo partly drawn)	Mycobacterium bovis	–	BCG	concentration not given	–	post-antibiotic effect	23 to 27 h and 27 h
CC[C@H](C)[C@H](NC(=O)[C@H](CCCCN)NC(=O)[C@H](CCCCN)NC(=O)[C@H](C)NC(=O)[C@@H](NC(=O)[C@H](C)NC(=O)[C@H](CC(C)C)NC(=O)[C@H](CC(C)C)NC(=O)[C@H](C)NC(=O)[C@H](CCCCN)NC(=O)[C@H](CC(C)C)NC(=O)[C@H](CC(N)=O)NC(=O)[C@@H](N)CC(C)C)C(C)C)C(=O)N[C@@H](CC(C)C)C(N)=O	Staphylococcus aureus	–	ATCC 12600	–	–	MIC	500 µM (≈ 753 µg/mL)
CCC1(CC)C2CC3CC(C2)CC1(NC)C3	Influenza A virus	viral replication	A/PR/8/34 H1N1	–	–	EC50	4 µM
CC1(C)N=C(N)N=C(N)N1c1cccc(C(F)(F)F)c1	influenza B virus	viral replication	–	–	–	EC50	~0.016 µM
CCCCCc1cc(O)c2c(c1)OC(C)(C)C1CCC(C)=CC21 (stereo not drawn)	–	–	rat with ocular hypertension	5 mg/kg	–	intraocular pressure decrease	~6 mmHg
CC1=C(C)C(=O)OC(C(C)(O)C2(O)CCC3(O)C4CC5OC56CC=CC(=O)C6(C)C4CCC32C)C1 (stereo not drawn)	MCF7	cell growth	–	–	–	IC50	3.91 µM
CCCCCn1cc(C(=O)c2cccc3c2CC(C)(C)C3)c2ccccc21	cannabinoid receptors	–	–	–	baseline: Ki CB1 over Ki CB2	selectivity ratio	1.1
O=C(N[C@@H]1CC[C@@]2(O)[C@H]3Cc4ccc(O)c5c4[C@@]2(CCN3CC2CC2)[C@H]1O5)c1cccc2ccoc12	–	anti-analgesic effect	Swiss Webster mice	–	–	AD50	0.18 mg/kg
CCCCCc1cc(O)c2c(c1)OC(C)(C)[C@@H]1CCC(C)=C[C@@H]21	serotonin transporter	–	–	–	–	inhibitory concentration	< 1 µM
CCOCC1C(c2ccc(Cl)c(Cl)c2)CC2CCC1N2C (stereo not drawn)	dopamine transporter	inhibitor	–	–	–	IC50	0.0065 µM
CC1=C(C)C(=O)OC(C(C)(O)C2(O)CCC3(O)C4CC5OC56C(O)C=CC(=O)C6(C)C4CCC32C)C1 (stereo not drawn)	T47D	cell growth	–	–	–	IC50	2.2 µM

Repeated from above:
Structure (SMILES)	target or system	test	system	setting	how to read	endpoint	value
CCCC/C=C/C(=O)N[C@@H](Cc1cc(F)cc(F)c1)C(=O)OC	Bacillus subtilis ClpP	peptidase activity, activator	–	–	–	EC50	~6 µM
